Measured values of several laboratories.
Numbered parts are unrelated; each lists some results of a single study. Positions count from the first letter of the parent shown.

Series 1
Target: CCNE1, cyclin fold, Cln2 fusion (human)
Technique: yeast growth competition, sequencing
Sample: yeast
Notes: strong parent motif
Baseline: not given
Direction: higher = stronger binding
Endpoint: normalised enrichment score
Parent: RBL1 docking peptide (human); GSAKRRLFGEDPP; partner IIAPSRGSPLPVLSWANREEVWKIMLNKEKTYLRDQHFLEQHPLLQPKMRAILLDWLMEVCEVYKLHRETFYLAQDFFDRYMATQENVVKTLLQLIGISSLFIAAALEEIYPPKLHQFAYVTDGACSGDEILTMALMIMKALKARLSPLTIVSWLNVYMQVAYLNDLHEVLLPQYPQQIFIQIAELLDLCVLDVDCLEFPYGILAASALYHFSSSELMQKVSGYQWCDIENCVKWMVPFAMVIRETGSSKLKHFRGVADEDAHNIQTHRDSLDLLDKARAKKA
Variant = GSARRRLFGEDPP [K4R]; value = 7.38
Variant = GSAKRDLFGEDPP [R6D]; value = -0.0277
Variant = GSAKRRLFGEHPP [D11H]; value = 4.59
Variant = DSAKRRLFGEDPP [G1D]; value = 6.11
Variant = GSAKRRLFGEDPM [P13M]; value = 5.24
Variant = GSAKRRLFGEDGP [P12G]; value = 5.68
Variant = GSDKRRLFGEDPP [A3D]; value = 0.435
Variant = GSAKRALFGEDPP [R6A]; value = 2.52
Variant = GSQKRRLFGEDPP [A3Q]; value = 0.46
Variant = GSAKARLFGEDPP [R5A]; value = 0.379
Variant = GSAKMRLFGEDPP [R5M]; value = 0.464
Variant = GSAKRFLFGEDPP [R6F]; value = 2.81
Variant = GSAKRWLFGEDPP [R6W]; value = 2.26
Variant = GSAKTRLFGEDPP [R5T]; value = 0.33
Variant = GSAKRRLFGEDCP [P12C]; value = 6.16
Variant = GSAKRRLFGHDPP [E10H]; value = 5.56
Variant = GSAKRRLVGEDPP [F8V]; value = 0.465
Variant = YSAKRRLFGEDPP [G1Y]; value = 7.37
Variant = GSAKRILFGEDPP [R6I]; value = 4.93
Variant = GSAGRRLFGEDPP [K4G]; value = 0.512
Variant = GSAQRRLFGEDPP [K4Q]; value = 1.6
Variant = GSAKRRLFGEDSP [P12S]; value = 7.06
Variant = GSAKRNLFGEDPP [R6N]; value = 2.96
Variant = GSAKRRHFGEDPP [L7H]; value = -0.597
Variant = GSAKRRLFGIDPP [E10I]; value = 5.11

Series 2
Target: Ras GTPase-activating protein-binding protein 1, RRM domain (G3BP1, Homo sapiens, UniProt Q13283)
Chain of UniProt Q13283 (whole entry, looked up): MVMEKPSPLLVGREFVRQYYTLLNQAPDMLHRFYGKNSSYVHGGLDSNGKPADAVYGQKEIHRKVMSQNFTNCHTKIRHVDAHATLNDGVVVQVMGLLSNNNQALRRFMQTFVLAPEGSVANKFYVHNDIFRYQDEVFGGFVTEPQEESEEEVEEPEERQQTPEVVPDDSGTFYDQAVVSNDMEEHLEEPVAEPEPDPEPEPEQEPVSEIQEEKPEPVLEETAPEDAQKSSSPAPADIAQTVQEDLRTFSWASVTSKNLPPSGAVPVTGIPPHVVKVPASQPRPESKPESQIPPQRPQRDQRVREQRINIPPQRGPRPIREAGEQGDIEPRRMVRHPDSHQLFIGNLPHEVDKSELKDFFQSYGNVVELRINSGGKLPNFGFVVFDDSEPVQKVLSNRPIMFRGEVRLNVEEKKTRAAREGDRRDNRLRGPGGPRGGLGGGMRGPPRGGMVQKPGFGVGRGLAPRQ
Technique: RNA Bind-n-Seq
Form: RNA
Sample: in vitro
Tested at: 1 µM
Notes: whole 134-nt RNA, ends assumed
Added: 150 mM KCl
Baseline: input library
Direction: higher = stronger binding
Endpoint: log2 enrichment
Shared flanks, not repeated: GGGAGUUCUACAGUCCGACGAUC … UGGAAUUCUCGGGUGUCAAGG
Sequence = UGAUGAUAGUAGCAGAGAAGAUGAACAUACACAUACUAACAGUGUCACGAACUCCAGUAGUAUUGUGGACCUGCCCGUUCACCAACUCUC; value = 0.049
Sequence = UCCCGGGCGCUAGCCCACCUCCCACCCGCCUCUUGGCUCCUCUCCUCUAGGCCGUCGCUUUCGGGUUCUCUCAUCGCUUCGUCGUUCGCC; value = -0.256
Sequence = CACAGACAACACGCACCCACACAGACACAGAGGGAAGGGGUUGGGAUGGGGACAGGGUGCACAGCAGGGCGGGGUAGGACGCCAGCCCCU; value = -0.316
Sequence = UCCUGUGCUACACAUCGUAUGUACCGAAUCAAACCCCCCCAAACCCCCCCAAACCCAAAAAAGUAUUAUGUUACGCCGUUCGGAUCUGCA; value = -0.083
Sequence = CUGUGCUACACAUCGUAUGUACCGAAUCGGGUUUUUUUGGGGUUUUUUUGGUUUUUUUGGGGAAAGUAUUAUGUUACGCCGUUCGGAUCU; value = -0.258
Sequence = UCCUGUGCUACACAUCGUAUGUACCGAAUCGGGGUUUUUUUGGGGUUUUUGGGGUGGGGAAAGUAUUAUGUUACGCCGUUCGGAUCUGCA; value = 0.413
Sequence = GUCCUGUGCUACACAUCGUAUGUACCGAAUCGGAAAAAAGGAAAAAAGGAAAAAAGGGGAAAGUAUUAUGUUACGCCGUUCGGAUCUGCA; value = 0.114
Sequence = CUGUGCUACACAUCGUAUGUACCGAAUCGGUUUUUUUGGGGUUUUUUUGGGUUUUUUUGGGAAAGUAUUAUGUUACGCCGUUCGGAUCUG; value = -0.249
Sequence = AAGUCCUGUGCUACACAUCGUAUGUACCGAAUCGGCCCCGGGCCCCGGGCCCCGGGGAAAGUAUUAUGUUACGCCGUUCGGAUCUGCACU; value = -0.779

Series 3
Target: Max-binding protein MNT, bHLH-zipper, MAX partner unstated (MNT, Homo sapiens, UniProt Q99583, residues 220-300)
Technique: protein-binding microarray
Form: double-stranded DNA, one strand shown
Sample: in vitro
Tested at: not given
Notes: k-mer, scored over probes, only values ≥0.25
Direction: higher = stronger binding
Endpoint: E-score
Construct (chain): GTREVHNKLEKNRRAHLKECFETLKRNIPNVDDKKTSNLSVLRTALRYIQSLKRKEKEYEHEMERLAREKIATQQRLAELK
Sequence = ACCAGGTG; value = 0.262
Sequence = AGCACATG; value = 0.483
Sequence = GCATGCCC; value = 0.399
Sequence = GCGCGCGC; value = 0.349
Sequence = CGACCCAC; value = 0.259
Sequence = GGTGTGCA; value = 0.262
Sequence = ACTCGTGA; value = 0.316
Sequence = CAATCACG; value = 0.334
Sequence = CTGCGTGC; value = 0.311

Series 4
Target: RNA binding protein fox-1 homolog 2, RRM domain, GST-SBP tag (RBFOX2, Homo sapiens, UniProt O43251-10, residues 100-194)
Technique: RNA Bind-n-Seq
Form: RNA
Sample: in vitro
Tested at: 365 nM
Notes: natural RNA segment, single round, ends assumed
Baseline: no-protein control
Direction: higher = stronger binding
Endpoint: RBNS enrichment (R)
Shared flanks, not repeated: GGGAGUUCUACAGUCCGACGAUC … UGGAAUUCUCGGGUGCCAA
Sequence = UGAGCCCAGUGAGUCCCAGCAGCUAUCAGCCUCCCUGAACGAUUAAACAGCUCCUCCCAGCAUUUGCAUUUGCCCUUCUGUUUCUGUGAGGCCGGCAGCCCUUGGGGCUG; value = 2.19
Sequence = GUAAUAAUAGUGUAAGUUCAGUAAAUCCAGUCCAAAUUCUCAUCACAUGUAUUAUUUGAUACUAAAUUUUCAAUUAUUACUUCAAAAUAAGAGUCUGAGGAUUUCUUCUU; value = 0.432
Sequence = UGGAGAAAUUACCAAGAUUUUAACAUCUAUAAAAUUGGUAUGUCUUAAAAGUUAUUUCAAAAAUCCUGUGAAGCAUCUGAAACUGGCUAGAACCAGUAACACUGAGACAU; value = 1.11
Sequence = UUUUGUACUAAAUCUUCAAAUAUUGUCUACUGUGUCAGGCAGAAACCGUUCUUAUCACGAGAAAGCACUUUGUUUCCAGGGUGACGAGUCCCGCGGAGCAUGCACACCUU; value = 18.4
Sequence = UAAGUUGGUCUUUCCCGGUGCUAUACUUGCCUCCUCUCCACGGAAGAAUUGUUCAGGAGAUGCGCUUGGGGUGAUGACUUCCUUAAAUACACGCUGUAGGGGGUGAAGAG; value = 0.565
Sequence = AAUGAACUGUGUAAUAAGAGAGGCAGAGAAAAUGCAGGACUCCAGUUGAGAAGGCUUAAUCUCCUGUUUACAGCCCACAAUGAUUCUGUCCCAUGGUGUCCUGGCUAUAU; value = 0.671
Sequence = AACAUCAUUGAAGCGUGACUGCCUGUCUGCAGGGAGAAGGAUUCCAUUUUUCUUCUCAGCUGGUCCCCAGGCCCACGGGCACAGGGAGAGGGACAACUGCAGCAGUGGGG; value = 0.424
Sequence = CAUGCCAUCGCCAUGACCCCCCCUGGCAUGCCACCUCAGGGGCAUGCACCUUCAAGUGCCUUUCACUGCACACCAAAGUCCCAAAGCUCGAAGCAGCGUACUUGCCCCAG; value = 0.67
